Assay results gathered from unrelated publications.
Compare with care: the assays were run in different laboratories. Several values in a cell are separate wells, animals, samples, runs or records.
Target: Serine/threonine-protein kinase PAK 2 (PAK2, Homo sapiens, UniProt Q13177)

| Structure (SMILES) | test | test system | setting | scale | endpoint | value |
| --- | --- | --- | --- | --- | --- | --- |
| Cc1cccc(O[C@H]2CCC[C@@H](C(C)CNCc3ccncc3)C2)c1 (relative stereo) | enzyme activity, inhibitor |  | 10 µM |  | inhibition | -3% |
| Cc1cnc2nc1Nc1cccc(c1)COC/C=C/COCc1cc(ccc1OCCN1CCOCC1)N2 | binding |  | 0.1 µM |  | remaining binding | 91% |
| COc1ccc(NC(=O)Nc2ccc3c(c2)C(=O)N(C(C)CO)CC(C)C(CN(C)Cc2ccc4c(c2)OCO4)O3)cc1 (stereo not shown) | binding, competition with immobilised ligand |  | 10 µM |  | remaining binding | 69% |
| CN1CC[C@@H](COc2cnc(C#N)cc2-c2ccn3nc(NC(=O)C4CC4)cc3c2)C1 | enzyme activity, inhibitor |  | 1 µM |  | inhibition | 19% |
| COc1c(Cl)cccc1Nc1c(-c2ccncc2C#C[C@@]2(C)CCCN2C(=O)/C=C/CN(C)C)[nH]c2c1C(=O)NCC2 | cell-free assay, competition with immobilised ligand |  | 3 µM |  | remaining binding | 85% |
| NC(=O)[C@@H](O)C[C@H]1CCc2sc3ncnc(O[C@H]4CC[C@H](N5CCOCC5)CC4)c3c21 | enzyme activity, inhibitor |  | 10 µM |  | inhibition | 2% |
| COCC12C(=O)NC3C4(C(OC)CC1O)C1CC5(O)C(OC)C(O)C(OC(C)=O)(C1C5OC(=O)c1ccccc1)C3(O)C(OC)C24 (stereo not shown) | kinase activity, inhibitor, ProQinase kinase profiling |  | 25 µM | baseline: control | remaining activity | 97% and 82% |
| Nc1ncc(-c2cc(-c3cnn(CC(F)(F)F)c3)ncc2F)nc1C(=O)NC1CNCC(F)C1 (stereo not shown) | enzyme activity |  | 1 µM | baseline: DMSO control | remaining activity | 96.4% |
| C=CC(=O)N1Cc2nc(-c3cc(-c4cc(Cl)cnc4Cl)c(F)cc3F)n(-c3ccncn3)c2C1 | cell-free assay, inhibitor |  | 1 µM |  | inhibition | -0.8% |
| COc1cc(Nc2nc(C)cc(-c3cnn4nc(OC)ccc34)n2)cc(C(F)(F)F)c1 | inhibitor |  | 1 µM | baseline: control | remaining activity | 75% |
| C=CC(=O)Nc1cccc(-c2cnc3[nH]cc(C(=O)NC(C)(C)C)c3n2)c1 | enzyme activity, inhibitor |  | 0.1 µM |  | inhibition | 3% |
| COc1ccc(O)cc1-c1c[nH]c2ncc(-c3cncc(C(=O)N(C)C)c3)cc12 | binding, competition with immobilised ligand |  | 0.2 µM |  | inhibition | -1.02% |
| CCn1cc(C(=O)O)c(=O)c2c(N)c(F)c(NC3CCCCC3)cc21 | kinase activity |  | 0.1 µM, with: ATP at Km |  | inhibition | 6.4% |
| CNC1C[S+]2CC[S+]3CC[S+](C1)[Ru-4]321([N]=C=S)[n]2c3ccc(OC)cc3c3c4c(c5cc(F)c[n+]1c5c32)C(=O)NC4=O (stereo not shown) | KinomeScan |  | 0.1 µM | baseline: untreated | remaining binding | 100% |
| COc1ccc(C(=O)/C=C/c2ccccc2-c2c[nH]c3ccc(C#N)cc23)c(O)c1 | enzyme activity, inhibitor |  | 20 µM |  | inhibition | 0% |
| C=CC(=O)N1CCCC(n2c(=O)c3ncccc3n(Cc3ccc(Oc4ccccc4)cc3)c2=O)C1 (stereo not shown) | cell-free assay, competition with immobilised ligand |  | 1 µM |  | remaining binding | 83% |
| CNC(=O)C[C@H](Cc1ccc(C#N)cc1)NC(=O)c1cc(-c2ccc(CN[C@H](C)c3ccc(C)cc3)o2)ccc1Cl | enzyme activity, inhibitor |  | 1 µM |  | activity vs control | 100% |
| C=C1CCCCCCCCCC(CO)C1=O (stereo not shown) | cell-free assay, competition with immobilised ligand |  | 10 µM |  | remaining binding | 100% |
| CC(C)=CC1OC(C)(C)C2C=C3C(=O)C(Cl)=CC(O)C3C3C(O)C4OC4C(=O)C132 (stereo not shown) | cell-free assay, competition with immobilised ligand |  | 10 µM |  | remaining binding | 95% |
| CN1CCN(Cc2ccc(NC(=O)c3cccc(C#Cc4cnc(N)c5ncccc45)c3)cc2C(F)(F)F)CC1 | cell-free assay, competition with immobilised ligand |  | 50 nM |  | remaining binding | 86% |
| Cc1ccc(-c2c(/C=C(\C#N)C(=O)NC(C)C)n(CCCO)c3ncnc(N)c23)cc1 | cell-free assay, competition with immobilised ligand |  | 1 µM |  | remaining binding | 91% |
| CS(=O)(=O)Nc1cccc(-c2csc3cnc(Nc4ccc(N5CCN(CCCCCOc6cccc7c6C(=O)N(C6CCC(=O)NC6=O)C7=O)CC5)cc4)nc23)c1 (stereo not shown) | kinase probe labelling, binder, KiNativ ATP-acylphosphate LC-MS | MOLT-4 live cells | 1 µM |  | inhibition | -2.87% |

Excerpt of the above:
| Structure (SMILES) | test | test system | setting | scale | endpoint | value |
| --- | --- | --- | --- | --- | --- | --- |
| Cc1cccc(O[C@H]2CCC[C@@H](C(C)CNCc3ccncc3)C2)c1 (relative stereo) | enzyme activity, inhibitor |  | 10 µM |  | inhibition | -3% |
| C=C1CCCCCCCCCC(CO)C1=O (stereo not shown) | cell-free assay, competition with immobilised ligand |  | 10 µM |  | remaining binding | 100% |
| C=CC(=O)Nc1cccc(-c2cnc3[nH]cc(C(=O)NC(C)(C)C)c3n2)c1 | enzyme activity, inhibitor |  | 0.1 µM |  | inhibition | 3% |
